Measurements gathered from unrelated publications.
Lines come from different studies, so protocols differ. Numbers after ± are the reported error.
UniProt P49760, sequence (whole entry, looked up): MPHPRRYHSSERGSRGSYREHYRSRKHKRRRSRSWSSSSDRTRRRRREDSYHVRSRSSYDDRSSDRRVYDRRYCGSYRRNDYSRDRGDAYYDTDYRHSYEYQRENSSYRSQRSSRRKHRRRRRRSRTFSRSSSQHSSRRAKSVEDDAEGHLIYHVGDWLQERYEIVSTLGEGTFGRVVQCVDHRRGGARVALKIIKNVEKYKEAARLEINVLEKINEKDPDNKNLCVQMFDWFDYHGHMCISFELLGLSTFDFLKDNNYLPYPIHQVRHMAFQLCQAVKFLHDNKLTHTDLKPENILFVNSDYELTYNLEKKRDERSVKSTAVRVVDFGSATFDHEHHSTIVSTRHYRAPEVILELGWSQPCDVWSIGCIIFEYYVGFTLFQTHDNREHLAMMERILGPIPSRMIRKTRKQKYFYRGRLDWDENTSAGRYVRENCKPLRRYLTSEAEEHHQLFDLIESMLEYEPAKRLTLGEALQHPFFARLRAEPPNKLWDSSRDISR

`COc1cccc2c1C(=O)c1c(O)c3c(c(O)c1C2=O)C[C@@](O)(C(=O)CO)C[C@@H]3O[C@H]1C[C@H](NC(=O)[C@@H]2CCCN2C(=O)CNC(=O)[C@H](CC(C)C)NC(=O)[C@H](C)NC(=O)CP(=O)(O)O)[C@H](O)[C@H](C)O1` has an AUC of 115 µM·h (healthy mice, plasma; intravenous, 94.4 mg/kg).
With `CC(C)C[C@H](NC(=O)C[C@H](O)[C@H](CC(C)C)NC(=O)[C@H](Cc1c[nH]cn1)NC(=O)CNC(=O)[C@@H](NC(=O)[C@H](C)NC(=O)[C@H](Cc1c[nH]c2ccccc12)NC(=O)[C@H](CCC(N)=O)NC(=O)[C@@H](Cc1ccccc1)NC(=O)CCNC(=O)CCSc1nnc(NCCC(=O)NCCC(=O)NCCCC[C@H](NC(=O)N[C@@H](CCC(=O)O)C(=O)O)C(=O)O)c2c1CCC1C(CC2)C1COC(=O)NCCNC(=O)CC[C@H](C(=O)O)N1CCN(CC(=O)O)CCN(CC(=O)O)CC1)C(C)C)C(N)=O` (stereo partly shown) [gallium-68 labelled] the tissue uptake was 1.34 %ID/g (athymic NMRI nude mouse, pancreas; intravenous, 533 pmol, 2 h).
`O=C(O)C[C@H](NC(=O)[C@H](CC(=O)O)NC(=O)[C@H](CC(=O)O)NC(=O)[C@H](CC(=O)O)NC(=O)[C@H](CC(=O)O)NC(=O)[C@H](CC(=O)O)NC(=O)[C@H](CC(=O)O)NC(=O)[C@H](CC(=O)O)NC(=O)[C@H](CC(=O)O)NC(=O)[C@H](CC(=O)O)NC(=O)[C@H](CC(=O)O)NC(=O)[C@H](CCCCNC(=O)c1ccc(C(=O)NCCOCCOB2BBBBBB3BBBB3B2)cc1)NC(=O)CN1CCN(CC(=O)O)CCN(CC(=O)O)CCN(CC(=O)O)CC1)C(=O)O` [gallium-67 labelled] gave a tissue uptake of 0.01 %ID/g (ddY male mice, brain; intravenous, 37 kBq, 3 h).
`C[C@@H](O)[C@@H](CO)NC(=O)[C@@H](CCCNC(=N)N)NC(=O)[C@@H]1CCCN1C(=O)[C@@H]1CSSC[C@H](NC(=O)[C@H](Cc2ccccc2)NC(=O)CN2CCN(CC(=O)O)CCN(CC(=O)O)CCN(CC(=O)O)CC2)C(=O)N[C@@H](Cc2ccc(O)cc2)C(=O)N[C@@H](Cc2ccccc2)C(=O)N[C@@H](CCC(N)=O)C(=O)N[C@@H](CC(N)=O)C(=O)N1` [gallium-68 labelled] gave a tissue uptake of 0.51 %ID/g (Wistar rat, healthy, Pituitary gland; intravenous, 8 MBq, 30 min, mean).
The tissue uptake of `N=C(N)NCCC[C@@H]1NC(=O)[C@H](CCCCNC(=O)c2ccc(CNC34CNCCNCC(N)(CNCCNC3)CNCCNC4)cc2)NC(=O)[C@@H](Cc2ccc(O)cc2)NC(=O)[C@H](CC(=O)O)NC(=O)CNC1=O` [copper-64 labelled] is reported as 0.8 ± 0.12 %ID/g (ex vivo biodistribution; male athymic nude mouse, PC-3 tumour, pancreas; 7.4 MBq, 48 h).
The half-life of `CC[C@H](C)[C@@H]([C@@H](CC(=O)N1CCC[C@H]1[C@H](OC)[C@@H](C)C(=O)N[C@H](C)[C@@H](O)c1ccccc1)OC)N(C)C(=O)[C@@H](NC(=O)[C@H](C(C)C)N(C)C(=O)OCc1ccc(NC(=O)[C@H](CCCCN)NC(=O)[C@@H](NC(=O)CCCCCN2C(=O)CC(SC[C@H](NC(=O)[C@H](CC(=O)O)NC(=O)[C@H](CCCNC(=N)N)NC(=O)[C@H](CC(=O)O)NC(=O)CCCCn3cc(CCCC(=O)Nc4nnc(S(N)(=O)=O)s4)nn3)C(=O)O)C2=O)C(C)C)cc1)C(C)C` (stereo partly shown) is reported as 8.2 h (LC-MS, refers to: intact conjugate; mouse serum; 100 µg/mL, 37 °C).
For `CC[C@H](C)[C@H](NC(=O)[C@H](Cc1ccccc1)NC(=O)[C@H](CCC(=O)O)NC(=O)[C@H](CCCNC(=N)N)NC(=O)[C@H](C)NC(=O)[C@H](C)NC(=O)[C@H](CCC(N)=O)NC(=O)[C@H](CCC(=O)O)NC(=O)[C@H](CCC(=O)O)NC(=O)[C@H](CC(C)C)NC(=O)[C@H](Cc1ccc(O)cc1)NC(=O)[C@H](CO)NC(=O)[C@H](CO)NC(=O)[C@@H](NC(=O)[C@H](CC(=O)O)NC(=O)[C@H](CO)NC(=O)[C@@H](NC(=O)[C@H](Cc1ccccc1)NC(=O)[C@@H](NC(=O)CNC(=O)[C@H](CCC(=O)O)NC(=O)[C@H](C)NC(=O)CCc1c[nH]cn1)[C@@H](C)O)[C@@H](C)O)C(C)C)C(=O)N[C@@H](C)C(=O)N[C@@H](Cc1c[nH]c2ccccc12)C(=O)N[C@@H](CC(C)C)C(=O)N[C@H](C(=O)N[C@@H](CCCNC(=N)N)C(=O)NCC(=O)N[C@@H](CCCNC(=N)N)C(=O)N[C@@H](CCCCNC(=O)COCCOCCNC(=O)COCCOCCNC(=O)CC[C@H](NC(=O)CCCCCCCCCCCCCCCCC(=O)O)C(=O)O)C(=O)NCC(=O)NCC(=O)N[C@@H](CO)C(=O)N[C@@H](CCCCNc1c(NCCCCCN(O)C(=O)CCC(=O)NCCCCCN(O)C(=O)CCC(=O)NCCCCCN(O)C(C)=O)c(=O)c1=O)C(=O)O)C(C)C` [zirconium-89 labelled], the tissue uptake was 0.94 %ID/g (rat, bone marrow; iv, 3 nmol/kg, 4 h, ex vivo).
With `C[C@H]1CN(c2n[nH]c3nc(N[C@H]4CC[C@H](NS(=O)(=O)CCC(F)(F)F)CC4)ncc23)CCO1` the IC50 was ≥ 20 µM (Dual specificity protein kinase CLK2 (CLK2, Homo sapiens, UniProt P49760); biochemical).
The half-life of `CCCCCCCCCC(=O)N[C@@H](Cc1c[nH]c2ccccc12)C(=O)N[C@H](CC(N)=O)C(=O)N[C@@H](CC(=O)O)C(=O)N[C@@H]1C(=O)NCC(=O)N[C@@H](CCCNC(=O)CCC(=O)N2Cc3ccccc3-c3c(nnn3CCC[C@H](NC(=O)CCCCC[N+]3=C(C=CC4=CC(=CC=C5N(C)c6ccccc6C5(C)C)CCC4)C(C)(C)c4ccccc43)C(=O)NCCCCNC(=O)OC(C)(C)C)-c3ccccc32)C(=O)N[C@@H](CC(=O)O)C(=O)N[C@H](C)C(=O)N[C@@H](CC(=O)O)C(=O)NCC(=O)N[C@H](CO)C(=O)N[C@@H]([C@H](C)CC(=O)O)C(=O)N[C@@H](CC(=O)c2ccccc2N)C(=O)O[C@@H]1C` is reported as > 4 h (mouse plasma; 1 µM, up to 240 min, pH 7.4, 37 °C).
`CC(C)[C@@H]1NC(=O)[C@H](Cc2ccccc2)NC(=O)[C@@H]2NC(=O)[C@H](Cc3ccccc3)NC(=O)[C@@H]3CCCN3C(=O)CNC(=O)[C@H](Cc3ccccc3)NC(=O)[C@@H]3CNCCCC[C@@H](C(=O)O)NC(=O)[C@@H]4NC(=O)[C@H](CC(N)=O)NC(=O)CNC(=O)[C@H]([C@@H](O)C(=O)O)NC(=O)[C@H](CSC[C@@H](NC(=O)[C@H](CCC(N)=O)NC(=O)[C@H](CCCCNC(=O)c5ccc(NN)nc5)NC(=O)[C@@H](N)CS[C@H]4C)C(=O)N[C@@H](CS[C@H]2C)C(=O)N3)NC1=O` [technetium-99m labelled] has a tissue uptake of 0.39 ± 0.05 %ID/g (rat, saline control, small intestine; intravenous, 2 h after tracer, tracer 2 h after reperfusion).

Some of these lines once more:
`CC(C)[C@@H]1NC(=O)[C@H](Cc2ccccc2)NC(=O)[C@@H]2NC(=O)[C@H](Cc3ccccc3)NC(=O)[C@@H]3CCCN3C(=O)CNC(=O)[C@H](Cc3ccccc3)NC(=O)[C@@H]3CNCCCC[C@@H](C(=O)O)NC(=O)[C@@H]4NC(=O)[C@H](CC(N)=O)NC(=O)CNC(=O)[C@H]([C@@H](O)C(=O)O)NC(=O)[C@H](CSC[C@@H](NC(=O)[C@H](CCC(N)=O)NC(=O)[C@H](CCCCNC(=O)c5ccc(NN)nc5)NC(=O)[C@@H](N)CS[C@H]4C)C(=O)N[C@@H](CS[C@H]2C)C(=O)N3)NC1=O` [technetium-99m labelled] has a tissue uptake of 0.39 ± 0.05 %ID/g (rat, saline control, small intestine; intravenous, 2 h after tracer, tracer 2 h after reperfusion).
